Measured values of several laboratories.
Compare with care: the assays were run in different laboratories. ± gives the spread as reported.

[64Cu+2].c1cnc(CNCc2ccc(CN3CCCN4CCNCCCN(CC4)CC3)cc2)nc1 — tissue uptake (CXCR4; NOD/SCID mouse, U87 and U87-stb-CXCR4 xenografts, lungs; iv, 60 min, ex vivo): 8.12 ± 0.61 %ID/g
NC(=S)N/N=C/c1cc(Cl)ccc1O — log stability constant (Cu2+ complex; potentiometric titration; 25 °C): 19.1
CCCC[C@@H]1NC(=O)[C@@H](NC(=O)[C@H](CCC(=O)O)NC(=O)CNC(=O)CN2CCN(CC(=O)O)CCN(CC(=O)O)CCN(CC(=O)O)CC2)CCCCNC(=O)C[C@@H](C(N)=O)NC(=O)[C@H](C(C)C)NC(=O)[C@@H]2CCCN2C(=O)[C@H](CCCNC(=N)N)NC(=O)CNC(=O)[C@H](Cc2c[nH]c3ccccc23)NC(=O)[C@H](CCCNC(=N)N)NC(=O)[C@@H](Cc2ccccc2)NC(=O)[C@H](Cc2c[nH]cn2)NC(=O)[C@H](CCC(=O)O)NC1=O [gallium-67 labelled] — tumour to muscle ratio (C57 mice with B16/F1 melanoma; intravenous, 0.037 MBq/mouse, 4 h; baseline: tumour over muscle): 203
COc1cc(O)cc2c1-c1ccc(O)c(OC)c1CC2 — viability (BV-2; cell growth or viability, MTT; 5 µM, 24 h): 104%
Cn1c(=O)oc2ccc(-c3ccc(CC(C#N)NC(=O)C4CNCCCO4)c(F)c3)cc21 (centres unmarked) — subjects with TEAE (refers to: anaemia; human; 60 mg single dose, fasted): 0%
O=C(O)[C@@H]1C[C@@H](O)CN1C(=O)[C@@H]1CCCN1 — −ΔG (iron(III) ion; complex formation, from log β; aqueous 0.15 M NaCl; 25 °C, MA2 complex species): 32.4 kcal/mol
N#CCc1cccc(Cl)c1-c1ccc2[nH][11c](=O)[nH]c2c1 — brain uptake increase (P-glycoprotein and Bcrp; ex vivo brain uptake; mouse; injection, 30 min, together with: tariquidar; baseline: without tariquidar): 204%
CCCCCCCCCCCC(=O)Nc1ccccc1SSc1ccccc1NC(=O)CCCCCCCCCCC — viability (HaCaT; cell growth or viability, MTT; 2.5 mg/mL, 24 h): 92.1%
O=C(O)CCC(NP(=O)(O)OCCC[C@@H](NC(=O)CC[C@H](NC(=O)CCCCCNC(=O)c1ccc([18F])cc1)C(=O)O)C(=O)O)C(=O)O (some centres unmarked) — tracer uptake (CWR22Rv1 tumour model; host not given, blood; 4 h, tumour-bearing): 0.011 %ID/g
C=CC(=O)Oc1c(C(C)c2cc(C(C)(C)CC)cc(C(C)(C)CC)c2O)cc(C(C)(C)CC)cc1C(C)(C)CC (centres unmarked) — concentration in mucosal solution (Cyprinus carpio; everted gut sac; intestine; concentration not given, 24 h, 23 °C): 85.8 ± 4.2 µg/mL
Nc1ccccc1C(=O)NS(=O)(=O)NC[C@H]1O[C@@H](n2cnc3c(N)ncnc32)[C@H](O)[C@@H]1O — intracellular concentration (Pseudomonas aeruginosa; LC-MS/MS of lysate; PA14, LB medium; 1000 µM, 30 min, OD600 0.5): 20 to 30 µM
[64Cu+2].c1ccc(CNCc2ccc(CN3CCCN4CCNCCCN(CC4)CC3)cc2)nc1 — tissue uptake (CXCR4; NOD/SCID mouse, U87 and U87-stb-CXCR4 xenografts, kidney; iv, 90 min, ex vivo, together with: AMD3465 25 mg/kg sc before tracer): 14.7 ± 1.82 %ID/g
N=C(N)NCCC[C@@H]1NC(=O)[C@H](Cc2c[nH]c3ccccc23)NC(=O)[C@@H](CC2CCCCC2)NC(=O)[C@@H]2CCCN2C(=O)[C@@H](NC(=O)CCc2ccccc2)CCCNC1=O — AUC (C57BL/6J mouse, plasma; subcutaneous, 1 mg/kg, single dose): 3350 ng·h/mL
COc1ccc2cc(-c3ccc(-c4ccc(C)cn4)nc3)oc2c1 — emission wavenumber shift (zinc(II); neutral aqueous solution; zinc saturation; baseline: zinc-free ligand): 1840 cm⁻¹
CC(=O)N[C@H](C(=O)N[C@H](C(=O)N[C@@H](CCCNC(=N)N)C(=O)N1Cc2ccccc2C[C@H]1C(=O)N[C@@H](Cc1ccccc1)C(N)=O)C1CCCCC1)C(C)C — cytokine level (human PBMC; Bio-Plex multiplex, refers to: IL-2; 250 µg/mL, 24 h): 6.9 ± 3.3 pg/mL
CCCCCCCCCCCCCC(=O)Nc1ccccc1SSc1ccccc1NC(=O)CCCCCCCCCCCCC — viability (HaCaT; cell growth or viability, MTT; 5 mg/mL, 24 h): 100%
COc1cc(O)c(-c2c(O)cc(OC)c3c2ccc2cc(O)ccc23)c2ccc3ccccc3c12 — viability (BV-2; cell growth or viability, MTT; 5 µM, 24 h): 104%

Some of these lines once more:
C=CC(=O)Oc1c(C(C)c2cc(C(C)(C)CC)cc(C(C)(C)CC)c2O)cc(C(C)(C)CC)cc1C(C)(C)CC (centres unmarked) — concentration in mucosal solution (Cyprinus carpio; everted gut sac; intestine; concentration not given, 24 h, 23 °C): 85.8 ± 4.2 µg/mL
Nc1ccccc1C(=O)NS(=O)(=O)NC[C@H]1O[C@@H](n2cnc3c(N)ncnc32)[C@H](O)[C@@H]1O — intracellular concentration (Pseudomonas aeruginosa; LC-MS/MS of lysate; PA14, LB medium; 1000 µM, 30 min, OD600 0.5): 20 to 30 µM
